Assay results of several laboratories.
Parts stem from different laboratories: compare values within a part only. Positions count from the first letter of the parent shown.

Series 1
Target: Prothrombin, mature alpha-thrombin (F2, Homo sapiens, UniProt P00734)
Method: aptamer microarray, sandwich
Form: DNA with 2'F-ANA
Medium: in vitro
Concentration: 200 nM
Notes: whole 15-mer aptamer, many near background
Together with: Cy3 exosite-II aptamer, 400 nM
Reading: higher = stronger binding
Measurement: mean fluorescence intensity
Oligonucleotide: GGTTGGTGTGGTTGG
2'F-ANA at 2 3 4 6 7 8 9 11 13: 328 a.u.
2'F-ANA at 9 10 12 13 14 15: 121 a.u.
2'F-ANA at 1 6 7 10 11 12 13: 90.3 a.u.
2'F-ANA at 2 3 4 6 7 8 9 10 12 13: 271 a.u.
2'F-ANA at 1 8 9 10 11: 60.6 a.u.
2'F-ANA at 2 3 4 5 7 8 10 11 15: 92.7 a.u.
2'F-ANA at 4 8 10 11 14: 56.1 a.u.
2'F-ANA at 7 9 10 13 14: 131 a.u.
2'F-ANA at 1 2 3 4 7 10 11 12 15: 71.3 a.u.
2'F-ANA at 1 2 3 4 6 9 11 13 14: 54.7 a.u.
2'F-ANA at 2 4 7 8 11 13 14: 114 a.u.
2'F-ANA at 6 9 13 15: 310 a.u.
2'F-ANA at 1 2 3 5 6 8 11 14: 51.3 a.u.
2'F-ANA at 2 3 4 5 6 7 8 12: 218 a.u.
2'F-ANA at 1 5 6 7 8 9 10 11 12 13 15: 57.8 a.u.
2'F-ANA at 2 4 6 7 8 10 11 13 14: 64.2 a.u.
2'F-ANA at 1 2 7 10 11 13 14 15: 52.8 a.u.
2'F-ANA at 1 3 4 5 7 8 10 11 12 13 15: 51.9 a.u.
2'F-ANA at 3 5 6 7 8 13 14: 52.6 a.u.
2'F-ANA at 3 5 6 7 8 9 11 13 14: 51.4 a.u.
2'F-ANA at 1 2 3 4 5 6 8 9 10 12: 59.7 a.u.
2'F-ANA at 4 5 6 8 9 11 12 14 15: 52 a.u.
2'F-ANA at 1 2 4 5 6 10 13 14 15: 48.1 a.u.
2'F-ANA at 1 6 9 10 11 12: 62.4 a.u.
2'F-ANA at 1 3 5 6 7 8 9: 73.6 a.u.

Series 2
Target: CCND3, cyclin fold, Cln2 fusion (human)
Method: yeast growth competition, sequencing
Medium: yeast
Notes: weak parent motif
Reference: not given
Reading: higher = stronger binding
Measurement: normalised enrichment score
Starting sequence: SAMHD1 docking peptide (human); ASKSRVQLFKDDP
D11A: -0.154
K3R: 0.132
S4T: 0.0669
Q7R: 0.712
R5L: -0.0688
R5Q: 0.13
Q7P: -0.0532
F9R: -0.0483
S4V: -0.104
L8A: -0.168
V6Y: 0.0141
D12S: 0.252
K10V: -0.0396
S4N: -0.0467
R5W: 0.276
D11G: 0.624
K10F: -0.754
D11F: 0.119

Series 3
Target: ABI1, truncated, D143A, DHFR fusion (Arabidopsis thaliana)
Method: DHFR PCA, deep sequencing
Medium: yeast
Notes: methotrexate growth selection, single substitutions
Together with: (+)-ABA 17 µM
Reference: wild-type fitted maximum
Reading: higher = stronger binding
Measurement: relative binding score
Starting sequence: PYL1, truncated, DHFR fusion (Arabidopsis thaliana); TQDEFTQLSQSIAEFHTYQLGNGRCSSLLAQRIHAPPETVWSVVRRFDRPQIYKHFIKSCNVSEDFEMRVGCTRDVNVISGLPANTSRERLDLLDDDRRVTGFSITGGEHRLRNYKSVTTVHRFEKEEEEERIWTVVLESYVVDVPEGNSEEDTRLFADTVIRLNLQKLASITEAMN; partner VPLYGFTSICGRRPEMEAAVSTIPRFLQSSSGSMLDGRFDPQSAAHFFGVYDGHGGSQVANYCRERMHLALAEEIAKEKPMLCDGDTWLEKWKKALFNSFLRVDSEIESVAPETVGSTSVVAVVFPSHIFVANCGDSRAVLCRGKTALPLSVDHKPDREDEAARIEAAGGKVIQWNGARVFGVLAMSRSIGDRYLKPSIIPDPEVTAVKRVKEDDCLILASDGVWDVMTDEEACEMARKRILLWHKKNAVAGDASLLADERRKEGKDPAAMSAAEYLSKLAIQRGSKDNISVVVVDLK
E125I: 82.8%
E67Y: 66.8%
V70K: 53.4%
L91D: 11.8%
I162H: -11.9%
K116D: -8.08%
V145C: 67.7%
D97T: 100%
A13Q: 80.5%
E147R: 73.9%
Q10F: 47.7%
L169W: -1.39%
T154N: -12.4%
Q19T: 85.9%
S9P: 44.7%
P37K: -23.5%
V142W: 4.21%
P83H: 13%
T1H: 81.5%
Q10M: 69.5%
A30Q: 80%
L169N: 16.8%
L112F: 74.6%
S42T: 71.7%

Series 4
Target: RNA binding protein fox-1 homolog 2, RRM domain, GST-SBP tag (RBFOX2, Homo sapiens, UniProt O43251-10, residues 100-194)
Method: RNA Bind-n-Seq
Form: RNA
Medium: in vitro
Concentration: 365 nM
Notes: natural RNA segment, single round, ends assumed
Reference: no-protein control
Reading: higher = stronger binding
Measurement: RBNS enrichment (R)
Shared flanks, not repeated: GGGAGUUCUACAGUCCGACGAUC … UGGAAUUCUCGGGUGCCAA
Target sequence (chain): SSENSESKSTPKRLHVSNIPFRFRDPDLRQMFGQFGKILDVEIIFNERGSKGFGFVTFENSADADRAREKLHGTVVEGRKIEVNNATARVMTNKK
AUCCCCUCAUUCAGGAAAACUGACAGAGGAGGGCGUGACUCACCCAAGCAUAUAUAACUAGCUAGAAGUGGGCCAGGACAGGCCCGGCGCGGUGGCUCACGCCUGUAAUC: 0.251
GAACACACCGAGGAAACAUGUAGCGAGAAUCACAUACAAGGCUUGGUGUUUCAUAAGCAUGCCUGCUGACAGCUGUAUGUGGUACUGCAGUGUUUACCAUAAACAGGUAC: 1.78
GAAUAAAUCACACCAGCUUCCUGAAAAUGUUCAUAAUGCAUCUUUUGGAAAACAAAUACAUGCCUACUUUGUGCAUAUUUGCAUUAACAUGGCAAAGAUUGUAUGAAAUA: 0.311
CUUUGCAUGUUGUGUGUGAUAUACCUAGCCAGAAAUAGAUGUGGCUUUUGUUUUGGGGGCAGAUUACUUUCAAAAGCAAAUACAAUUCACUUGAAUUUGACAAACUGAAG: 5.87
GGUAGCUACCUCAUAACUUGUAAAGAAUCCAAUGAAUUAAAACACAGGUCUCAGUAUUAGCUUGUAUUACUGUACUAUCGAGUCCAUACACGGCUCUCUAAAGCCCUACA: 1.54
GGACUCCCUUGGCUCAGAGUGUGGUGCUAGAAACUGGUCCCCAGCCCAGUCCCAGUACUGCCAUCUUUGCAUCCACCCCUGCAAGUCUCCAGAGGGCUUCCUGCCACAGA: 0.284
AAGGGCACAGUUGUGGUACUGUCAUUGAUAAUAAUAUAGUUUUUUUUUUUUUCCUAAUUUUGACCUGUUUCACCAGUGUUUUACCCUUGACUGCCCCUUCUAUGCUGCUU: 0.838
GUUUUAUCUUUUAAUGAUAACUUAGGUGCCCUUGGUGGGCUUUCCAAACCUGGUUACUCAACGUUAGCAGUGAAGCGAGCCGGUGGUGACUGUGGCUGGAAUGUGGUGGG: 0.817
UACAUGCUUUCUCAUUCAAGAAUUCGUCAUCACGCAUCACAGGCCGCGUCUUUGACGGUGGGUGUCCCAUUUUUAUCCGCUACUCUUUAUUUCAUGGAGUCGUAUCAACG: 0.303
UUGUUUUGGCAGUUGACAAGAAGUUAAUUUGCUUUAGUAAAAAUCCCUCAUUCCAGCCUUUCUAUAUAAAUAGCUCUUUCUUGCUGUUUUAAUGUGGUGCACACUAUAGC: 0.747
AAGGCAAGAUUCUAACCUAUACAGCCUGAUGCUAGAGCCUGUGAUGACCACUGUGCUUUGCUACCAACUGACUGAACUCCAGCCAGCCAAAUGAAACCAUGUACCCUUGG: 0.456
UAUUUGAAAGGCAACAUAGUCAAUUAAGAAACCUGUAGUUGUUAAGGAAGAAAUUGUUGGCAAGAUAUCCAUACUGCCCAUAUCUCGUUGGUGCAAUAAUUAAAUAGCAA: 0.353

Series 5
Target: Histone acetyltransferase KAT6A, winged helix 2, GST fusion (KAT6A, Homo sapiens, UniProt Q92794, residues 85-181)
Method: protein binding microarray
Form: double-stranded DNA, one strand shown
Medium: in vitro
Concentration: not given
Notes: 8-mer, flanks averaged, mean of 2 arrays, mostly near background
Reference: not given
Reading: higher = stronger binding
Measurement: E-score
Target sequence (chain): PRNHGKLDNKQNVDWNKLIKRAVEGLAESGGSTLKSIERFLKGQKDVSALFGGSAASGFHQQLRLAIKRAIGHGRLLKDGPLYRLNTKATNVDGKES
AGATAAAG: -0.0522
ATGACCCC: -0.0553
GCTGCAGA: 0.131
AGGTGACC: -0.176
AGATGTTA: -0.167
AAAGCGTT: -0.103
GGGCAGAC: 0.0615
CGTTTCAA: -0.0151
AGTGTAAA: -0.0482
GCTGTTAC: -0.153
GTCAGTTA: -0.208
CGCTAATC: -0.0446
GCTCACTA: -0.107
AGGGCTAA: 0.065
CCTCACGC: 0.135
CCGAGTTC: 0.164
ACATTCAC: -0.14
ATCATCCA: -0.0665
GCCGAAGC: 0.153
